{"data": "Results gathered from unrelated publications", "note": "Each line is one published result; not all experiments were run side by side. Numbers after ± are the reported error."}
{"Structure (SMILES)": "O=C([O-])CN1CCN(CC(=O)[O-])CCN(CC(=O)NCCc2ccc3c(c2)C2C=CCC2C(c2cc4c(cc2Br)OCO4)N3)CCN(CC(=O)[O-])CC1.[111In+3] (centres unmarked)", "system": "mouse, Hec50 endometrial tumour, spleen", "setting": "2 h post injection", "tissue uptake [%ID/g]": "0.26 ± 0.07"}
{"Structure (SMILES)": "CC(C)[C@H](NC(=O)[C@@H]1CCCN1C(=O)[C@H](CCCNC(=N)N)NC(=O)[C@H](CS)NC(=O)[C@H](Cc1c[nH]c2ccccc12)NC(=O)[C@H](CCCNC(=N)N)NC(=O)[C@@H](Cc1ccccc1)NC(=O)[C@H](Cc1c[nH]cn1)NC(=O)[C@H](CCC(=O)O)NC(=O)[C@H](CS)NC(=O)[C@H](CS)NC(=O)CNC(=O)[C@@H]1CC(=O)N[C@@H](CCCNC(=N)N)C(=O)NCC(=O)N[C@@H](CC(=O)O)C(=O)N[C@H](Cc2ccc(O)cc2)C(=O)N1)C(N)=O [technetium-99m labelled]", "system": "C57 mouse, female, B16/F1 melanoma, pancreas", "setting": "intravenous, 0.037 MBq, 24 h", "tissue uptake [%ID/g]": "0.31 ± 0.15"}
{"Structure (SMILES)": "CCCC[C@H](NC(=O)CNC(=O)CNC(=O)CN1CCN(CC(=O)O)CCN(CC(=O)O)CCN(CC(=O)O)CC1)C(=O)N[C@H]1CC(=O)NCCCC[C@@H](C(N)=O)NC(=O)[C@H](Cc2c[nH]c3ccccc23)NC(=O)[C@H](CCCNC(=N)N)NC(=O)[C@@H](Cc2ccccc2)NC(=O)[C@H](Cc2c[nH]cn2)NC1=O [lead-203 labelled]", "system": "C57 mouse, heart", "setting": "intravenous, 0.056 MBq, 24 h", "tissue uptake [%ID/g]": "0.16 ± 0.07"}
{"Structure (SMILES)": "CN(C)c1ccc(-c2nc3ccc(OCCCCCN4CCN5CCN(CC4)CC(=O)[O][Al]([18F])[O]C(=O)C5)cc3s2)cc1", "system": "ICR mouse, liver", "setting": "intravenous, 10 min", "tissue uptake [%ID/g]": "74.7 ± 5.23"}
{"Structure (SMILES)": "CCCC[C@H](NC(=O)CNC(=O)CNC(=O)CN1CCN(CC(=O)O)CCN(CC(=O)O)CCN(CC(=O)O)CC1)C(=O)N[C@H]1CC(=O)NCCCC[C@@H](C(N)=O)NC(=O)[C@H](Cc2c[nH]c3ccccc23)NC(=O)[C@H](CCCNC(=N)N)NC(=O)[C@@H](Cc2ccccc2)NC(=O)[C@H](Cc2c[nH]cn2)NC1=O [copper-64 labelled]", "system": "female C57 mouse, B16/F1 melanoma, lung", "setting": "intravenous, 0.037 MBq, 0.5 h", "tissue uptake [%ID/g]": "3.76 ± 0.54"}
{"Structure (SMILES)": "CN1C(=O)[C@@H](Cc2ccc(O)c(I)c2)NC(=O)CNC(=O)[C@H](Cc2ccc3ccccc3c2)NC(=O)[C@H](CCCNC(=N)N)NC(=O)[C@H]1CCCNC(=O)c1ccc(CNC(=O)CN2CCN(CC(=O)O)CCN(CC(=O)O)CCN(CC(=O)O)CC2)cc1 [lutetium-177 labelled]", "system": "female CB-17 SCID mouse, Daudi xenograft, brain", "setting": "intravenous, 6 h, CXCR4 blocking, added: AMD3100 2 mg/kg coinjected", "tissue uptake [%ID/g]": "0.02 ± 0.002"}
{"Structure (SMILES)": "CCCC[C@H](NC(=O)CNC(=O)CNC(=O)CN1CCN(CC(=O)O)CCN(CC(=O)O)CC1)C(=O)N[C@H]1CC(=O)NCCCC[C@@H](C(N)=O)NC(=O)[C@H](Cc2c[nH]c3ccccc23)NC(=O)[C@H](CCCNC(=N)N)NC(=O)[C@@H](Cc2ccccc2)NC(=O)[C@H](Cc2c[nH]cn2)NC1=O [copper-64 labelled]", "system": "female C57 mouse, B16/F1 melanoma, kidneys", "setting": "intravenous, 0.037 MBq, 0.5 h", "tissue uptake [%ID/g]": "9.28 ± 0.77"}
{"Structure (SMILES)": "CC(C)[C@H](NC(=O)[C@@H]1CCCN1C(=O)[C@H](CCCNC(=N)N)NC(=O)[C@H](CS)NC(=O)[C@H](Cc1c[nH]c2ccccc12)NC(=O)[C@H](CCCNC(=N)N)NC(=O)[C@@H](Cc1ccccc1)NC(=O)[C@H](Cc1c[nH]cn1)NC(=O)[C@H](CCC(=O)O)NC(=O)[C@H](CS)NC(=O)[C@H](CS)NC(=O)[C@@H]1CC(=O)N[C@@H](CCCNC(=N)N)C(=O)NCC(=O)N[C@@H](CC(=O)O)C(=O)N[C@H](Cc2ccc(O)cc2)C(=O)N1)C(N)=O [technetium-99m labelled]", "system": "C57 mouse, female, B16/F1 melanoma, lung", "setting": "intravenous, 0.037 MBq, 0.5 h", "tissue uptake [%ID/g]": "8.24 ± 2.27"}
{"note": "Excerpt of the above:"}
{"Structure (SMILES)": "CCCC[C@H](NC(=O)CNC(=O)CNC(=O)CN1CCN(CC(=O)O)CCN(CC(=O)O)CCN(CC(=O)O)CC1)C(=O)N[C@H]1CC(=O)NCCCC[C@@H](C(N)=O)NC(=O)[C@H](Cc2c[nH]c3ccccc23)NC(=O)[C@H](CCCNC(=N)N)NC(=O)[C@@H](Cc2ccccc2)NC(=O)[C@H](Cc2c[nH]cn2)NC1=O [lead-203 labelled]", "system": "C57 mouse, heart", "setting": "intravenous, 0.056 MBq, 24 h", "tissue uptake [%ID/g]": "0.16 ± 0.07"}
